# Measurements gathered from unrelated publications.
# Numbered parts are unrelated; each lists some results of a single study.
# Sequence of UniProt O75582 (whole entry, looked up): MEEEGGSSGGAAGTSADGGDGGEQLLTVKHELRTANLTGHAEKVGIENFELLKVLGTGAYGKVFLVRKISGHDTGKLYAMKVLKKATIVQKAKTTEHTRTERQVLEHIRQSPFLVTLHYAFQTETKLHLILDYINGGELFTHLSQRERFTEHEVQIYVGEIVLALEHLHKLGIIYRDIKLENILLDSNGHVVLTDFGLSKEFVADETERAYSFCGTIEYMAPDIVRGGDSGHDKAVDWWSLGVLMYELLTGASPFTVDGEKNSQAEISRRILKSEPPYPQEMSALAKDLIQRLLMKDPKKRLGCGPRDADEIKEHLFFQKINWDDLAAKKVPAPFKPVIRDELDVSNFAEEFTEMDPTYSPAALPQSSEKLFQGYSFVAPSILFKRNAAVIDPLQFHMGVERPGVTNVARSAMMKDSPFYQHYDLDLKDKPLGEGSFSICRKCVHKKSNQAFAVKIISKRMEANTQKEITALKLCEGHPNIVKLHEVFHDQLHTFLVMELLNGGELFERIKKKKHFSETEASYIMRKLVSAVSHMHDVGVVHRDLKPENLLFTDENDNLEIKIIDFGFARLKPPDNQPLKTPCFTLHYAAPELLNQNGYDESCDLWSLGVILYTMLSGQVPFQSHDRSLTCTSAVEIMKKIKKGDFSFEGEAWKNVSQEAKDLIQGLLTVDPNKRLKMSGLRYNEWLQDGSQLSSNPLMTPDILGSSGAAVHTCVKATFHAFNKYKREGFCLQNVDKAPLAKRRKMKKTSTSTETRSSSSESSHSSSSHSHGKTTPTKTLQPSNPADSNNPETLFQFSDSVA
# Sequence of UniProt Q9BYP7 (whole entry, looked up): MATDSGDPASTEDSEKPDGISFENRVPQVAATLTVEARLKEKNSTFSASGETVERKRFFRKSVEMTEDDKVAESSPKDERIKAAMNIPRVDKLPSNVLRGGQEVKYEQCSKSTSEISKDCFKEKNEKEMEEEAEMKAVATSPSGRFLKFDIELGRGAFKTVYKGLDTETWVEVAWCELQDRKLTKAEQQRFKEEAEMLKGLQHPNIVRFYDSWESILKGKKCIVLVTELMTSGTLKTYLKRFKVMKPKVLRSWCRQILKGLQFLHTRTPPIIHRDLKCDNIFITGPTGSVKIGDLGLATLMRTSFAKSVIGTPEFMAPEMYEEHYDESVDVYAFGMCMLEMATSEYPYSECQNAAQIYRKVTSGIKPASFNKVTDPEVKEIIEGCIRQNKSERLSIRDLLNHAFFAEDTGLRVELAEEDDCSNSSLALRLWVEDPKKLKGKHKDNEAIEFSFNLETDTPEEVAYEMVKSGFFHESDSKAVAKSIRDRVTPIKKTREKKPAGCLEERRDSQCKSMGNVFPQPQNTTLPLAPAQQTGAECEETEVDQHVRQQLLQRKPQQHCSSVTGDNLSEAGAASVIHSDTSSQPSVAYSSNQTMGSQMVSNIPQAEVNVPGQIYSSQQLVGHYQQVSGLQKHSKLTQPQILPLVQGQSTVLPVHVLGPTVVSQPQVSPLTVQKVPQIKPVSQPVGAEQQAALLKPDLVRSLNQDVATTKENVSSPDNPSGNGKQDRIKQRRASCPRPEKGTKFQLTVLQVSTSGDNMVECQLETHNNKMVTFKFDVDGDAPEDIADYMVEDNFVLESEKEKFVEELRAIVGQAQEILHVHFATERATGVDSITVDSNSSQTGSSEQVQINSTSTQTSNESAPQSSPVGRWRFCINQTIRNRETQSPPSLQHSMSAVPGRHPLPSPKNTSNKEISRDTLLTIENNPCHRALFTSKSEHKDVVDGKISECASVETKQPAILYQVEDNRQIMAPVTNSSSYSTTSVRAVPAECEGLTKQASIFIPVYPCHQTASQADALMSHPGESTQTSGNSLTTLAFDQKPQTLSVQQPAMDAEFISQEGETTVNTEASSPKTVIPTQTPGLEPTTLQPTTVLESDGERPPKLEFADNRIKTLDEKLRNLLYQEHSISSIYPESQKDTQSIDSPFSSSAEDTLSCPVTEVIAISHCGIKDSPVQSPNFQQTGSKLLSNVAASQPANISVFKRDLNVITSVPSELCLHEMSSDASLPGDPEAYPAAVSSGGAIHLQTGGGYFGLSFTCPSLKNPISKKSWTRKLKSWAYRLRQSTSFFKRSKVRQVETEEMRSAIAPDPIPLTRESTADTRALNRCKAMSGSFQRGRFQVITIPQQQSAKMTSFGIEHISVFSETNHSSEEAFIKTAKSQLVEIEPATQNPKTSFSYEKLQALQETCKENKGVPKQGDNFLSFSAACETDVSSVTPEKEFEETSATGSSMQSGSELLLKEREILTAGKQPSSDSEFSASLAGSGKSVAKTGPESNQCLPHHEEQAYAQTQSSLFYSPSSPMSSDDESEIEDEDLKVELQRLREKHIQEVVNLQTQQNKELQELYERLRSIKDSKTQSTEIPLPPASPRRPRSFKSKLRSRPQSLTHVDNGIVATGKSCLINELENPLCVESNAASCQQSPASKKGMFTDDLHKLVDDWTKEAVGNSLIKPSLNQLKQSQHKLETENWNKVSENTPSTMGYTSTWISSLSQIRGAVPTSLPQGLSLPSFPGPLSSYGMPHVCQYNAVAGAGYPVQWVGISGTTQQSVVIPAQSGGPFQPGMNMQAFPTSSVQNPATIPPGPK
# Sequence of UniProt Q7L7X3 (whole entry, looked up): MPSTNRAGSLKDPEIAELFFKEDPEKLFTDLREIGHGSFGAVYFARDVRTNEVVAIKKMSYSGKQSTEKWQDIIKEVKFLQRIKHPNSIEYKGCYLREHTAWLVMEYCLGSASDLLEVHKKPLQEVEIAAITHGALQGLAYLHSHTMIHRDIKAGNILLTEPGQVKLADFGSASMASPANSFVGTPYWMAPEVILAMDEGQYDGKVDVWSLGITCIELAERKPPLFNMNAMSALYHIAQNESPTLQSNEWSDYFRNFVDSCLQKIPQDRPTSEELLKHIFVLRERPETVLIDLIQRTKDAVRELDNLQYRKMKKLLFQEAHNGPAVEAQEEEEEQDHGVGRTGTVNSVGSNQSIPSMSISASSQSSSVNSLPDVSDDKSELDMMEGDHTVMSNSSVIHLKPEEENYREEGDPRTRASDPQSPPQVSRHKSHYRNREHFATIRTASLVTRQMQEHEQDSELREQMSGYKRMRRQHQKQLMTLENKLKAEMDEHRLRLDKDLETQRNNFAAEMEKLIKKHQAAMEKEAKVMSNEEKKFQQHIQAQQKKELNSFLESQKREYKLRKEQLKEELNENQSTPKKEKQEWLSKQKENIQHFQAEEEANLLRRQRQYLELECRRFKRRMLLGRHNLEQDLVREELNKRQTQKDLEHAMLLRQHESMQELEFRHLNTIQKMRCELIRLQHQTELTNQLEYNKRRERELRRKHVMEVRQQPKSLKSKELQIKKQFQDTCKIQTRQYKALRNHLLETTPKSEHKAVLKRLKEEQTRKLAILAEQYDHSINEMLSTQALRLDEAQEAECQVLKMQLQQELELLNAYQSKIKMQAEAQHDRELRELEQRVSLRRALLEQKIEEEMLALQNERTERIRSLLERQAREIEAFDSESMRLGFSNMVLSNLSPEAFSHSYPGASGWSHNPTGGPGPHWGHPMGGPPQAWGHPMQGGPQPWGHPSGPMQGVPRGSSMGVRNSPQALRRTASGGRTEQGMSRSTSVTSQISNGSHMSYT
# Sequence of UniProt Q92630 (whole entry, looked up): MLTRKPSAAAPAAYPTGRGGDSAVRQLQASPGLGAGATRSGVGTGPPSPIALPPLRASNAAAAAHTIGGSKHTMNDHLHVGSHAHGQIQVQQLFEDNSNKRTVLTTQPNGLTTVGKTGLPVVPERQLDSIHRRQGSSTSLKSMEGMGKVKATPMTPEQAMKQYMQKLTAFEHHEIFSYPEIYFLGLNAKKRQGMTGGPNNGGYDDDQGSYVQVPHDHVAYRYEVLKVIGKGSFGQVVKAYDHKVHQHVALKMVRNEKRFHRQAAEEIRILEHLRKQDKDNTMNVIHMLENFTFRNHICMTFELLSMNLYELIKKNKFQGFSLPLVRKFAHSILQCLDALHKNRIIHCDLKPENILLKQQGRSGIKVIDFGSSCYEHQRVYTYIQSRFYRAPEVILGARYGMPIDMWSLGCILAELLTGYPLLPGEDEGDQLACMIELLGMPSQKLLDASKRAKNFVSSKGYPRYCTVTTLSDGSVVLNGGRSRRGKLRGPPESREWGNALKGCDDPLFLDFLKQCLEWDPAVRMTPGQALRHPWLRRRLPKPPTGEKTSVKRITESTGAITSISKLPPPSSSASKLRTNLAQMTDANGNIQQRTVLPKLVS
# Sequence of UniProt O15530 (whole entry, looked up): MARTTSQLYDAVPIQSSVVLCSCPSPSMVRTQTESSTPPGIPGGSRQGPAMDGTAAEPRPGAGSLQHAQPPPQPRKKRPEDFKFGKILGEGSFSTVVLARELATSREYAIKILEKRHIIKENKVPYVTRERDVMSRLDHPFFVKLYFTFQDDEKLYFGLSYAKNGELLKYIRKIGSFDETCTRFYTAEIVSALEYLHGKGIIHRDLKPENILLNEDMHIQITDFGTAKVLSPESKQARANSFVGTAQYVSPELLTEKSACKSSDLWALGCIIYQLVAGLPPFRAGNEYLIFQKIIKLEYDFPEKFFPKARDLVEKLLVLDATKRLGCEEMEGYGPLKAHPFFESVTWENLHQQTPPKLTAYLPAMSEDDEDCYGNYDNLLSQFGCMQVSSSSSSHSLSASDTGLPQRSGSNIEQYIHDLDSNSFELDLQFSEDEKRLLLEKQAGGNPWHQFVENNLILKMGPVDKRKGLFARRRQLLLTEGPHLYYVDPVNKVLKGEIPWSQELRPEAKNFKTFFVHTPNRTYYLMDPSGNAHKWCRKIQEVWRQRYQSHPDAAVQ
# Sequence of UniProt Q00534 (whole entry, looked up): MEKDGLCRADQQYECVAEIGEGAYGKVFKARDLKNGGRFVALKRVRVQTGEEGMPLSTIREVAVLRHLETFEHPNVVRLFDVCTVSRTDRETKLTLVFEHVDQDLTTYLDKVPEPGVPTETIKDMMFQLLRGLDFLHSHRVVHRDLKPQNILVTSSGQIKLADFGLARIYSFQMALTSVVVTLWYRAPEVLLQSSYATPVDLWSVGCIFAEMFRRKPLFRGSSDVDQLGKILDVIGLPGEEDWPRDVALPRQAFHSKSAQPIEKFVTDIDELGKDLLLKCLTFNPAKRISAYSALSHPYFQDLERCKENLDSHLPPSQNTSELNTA

# Study 1 — mode: inhibitor; concentration: 10 µM; baseline: control
# Target: Diamine acetyltransferase 1 (Homo sapiens, UniProt P21673)
# Target sequence (P21673 1-171): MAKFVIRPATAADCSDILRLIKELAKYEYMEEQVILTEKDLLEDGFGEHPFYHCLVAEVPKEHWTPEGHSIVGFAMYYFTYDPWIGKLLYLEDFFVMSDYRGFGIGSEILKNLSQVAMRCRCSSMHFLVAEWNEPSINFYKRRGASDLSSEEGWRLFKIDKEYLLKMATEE
Compound,remaining activity
OCC(O)CO,123%
CC(=O)c1ccccc1,86.1%
COC(=O)C1=CO[C@@H](O[C@@H]2O[C@H](CO)[C@@H](O)[C@H](O)[C@H]2O)[C@H]2[C@@H]1C=C[C@@]2(O)CO,88.5%
CC(C)=CCC/C(C)=C/C=O,102%
O=Cc1c[nH]c2ccccc12,87.6%
COc1ccc(C(C)=O)c(O)c1,88.5%
C=C1C[C@@]23CC[C@H]4[C@@](C)(CCC[C@@]4(C)C(=O)O[C@@H]4O[C@H](CO)[C@@H](O)[C@H](O)[C@H]4O)[C@@H]2CC[C@]1(O[C@@H]1O[C@H](CO)[C@@H](O)[C@H](O)[C@H]1O)C3,96.8%
O=c1cc(-c2ccc(O)c(O)c2)oc2cc(O)c([C@@H]3O[C@H](CO)[C@@H](O)[C@H](O)[C@H]3O)c(O)c12,84.8%
C/C=C(\CC[C@@H](C)[C@H]1CC[C@H]2[C@@H]3CC=C4C[C@@H](O)CC[C@]4(C)[C@H]3CC[C@]12C)C(C)C,112%
CCCCCCCCCCCCCCCCCCCCCCC(=O)O,89.2%
N[C@@H](CS)C(=O)O,101%
C/C=C/c1cc(OC)c2c(c1)C(C)C(c1ccc(O)c(OC)c1)O2 (stereo not drawn),97.1%
O=C(c1c(O)cc(O)cc1O)C(c1coc2cc(O)cc(O)c2c1=O)C(c1ccc(O)cc1)c1ccc(O)cc1 (stereo not drawn),91.9%
CCCCCCCCCCCCCCCCCC,101%
O=c1cc(-c2ccc(O)cc2)oc2cc(O[C@@H]3O[C@H](CO)[C@@H](O)[C@H](O)[C@H]3O)cc(O)c12,96.4%
CCCCC/C=C\C/C=C\CCCCCCCC(=O)OC,96.8%

# Study 2 — method: PRP-column chromatography
SMILES,average log k' (20-100)
Cc1ncsc1-c1ccc(CNC(=O)[C@@H]2C[C@@H](O)CN2C(=O)[C@@H](NC(=O)CCCCCNC(=O)CC23C[C@H]4C[C@@H](C2)C[C@@H](C3)C4)C(C)(C)C)cc1,1.18
Cc1ncsc1-c1ccc(CNC(=O)[C@@H]2C[C@@H](O)CN2C(=O)[C@@H](NC(=O)CCCCCOC(=O)CC23C[C@H]4C[C@@H](C2)C[C@@H](C3)C4)C(C)(C)C)cc1,1.32
Cc1ncsc1-c1ccc(CNC(=O)[C@@H]2C[C@@H](O)CN2C(=O)[C@@H](NC(=O)CCCCCOC(=O)CC(c2ccccc2)c2ccccc2)C(C)(C)C)cc1,1.28
CCCC(=O)OCCCCCC(=O)N[C@H](C(=O)N1C[C@H](O)C[C@H]1C(=O)NCc1ccc(-c2scnc2C)cc1)C(C)(C)C,1.11

# Study 3 — Structure (SMILES): O=C(c1ccccc1)c1ccc(N2CCOCC2)cc1O; observed: enzyme activity; mode: inhibitor; concentration: 0.5 µM; baseline: control
target,remaining activity [%]
"STK17A (Homo sapiens, UniProt Q9UEE5)",97.9
"Cyclin-dependent kinase 6, with cyclin D3 (CDK6, Homo sapiens, UniProt Q00534)",97.7
"Cyclin-dependent kinase 1, with cyclin B (CDK1, Homo sapiens, UniProt P06493)",92.3
"MAP4K4 (Homo sapiens, UniProt O95819)",86.4
"MAPKAPK3 (Homo sapiens, UniProt Q16644)",106
"STK16 (Homo sapiens, UniProt O75716)",104
"HIPK2 (Homo sapiens, UniProt Q9H2X6)",105
"SRMS (Homo sapiens, UniProt Q9H3Y6)",93.9
"EPHA4 (Homo sapiens, UniProt P54764)",103
"CAMK2B (Homo sapiens, UniProt Q13554)",105
"RPS6KA6 (Homo sapiens, UniProt Q9UK32)",101
"Cyclin-dependent kinase 4, with cyclin D3 (CDK4, Homo sapiens, UniProt P11802)",96.2
"TSSK2 (Homo sapiens, UniProt Q96PF2)",104
"PDPK1 (Homo sapiens, UniProt O15530)",101
"WNK3 (Homo sapiens, UniProt Q9BYP7)",104
"AXL (Homo sapiens, UniProt P30530)",95.1
"PHKG1 (Homo sapiens, UniProt Q16816)",97.4
"HIPK4 (Homo sapiens, UniProt Q8NE63)",99.5
"RPS6KA5 (Homo sapiens, UniProt O75582)",102
"EPHB1 (Homo sapiens, UniProt P54762)",104
"DYRK3 (Homo sapiens, UniProt O43781)",98.9
"BLK (Homo sapiens, UniProt P51451)",102

# Study 4 — method: competition with immobilised ligand; concentration: 1 µM
# Compound: CO[C@@H](C)c1c(Nc2ccc([C@@H](N(C)C(=O)C3CCS(=O)(=O)CC3)C(F)(F)F)cc2)cnc2cc(Cl)nn12
target,observed,remaining binding
"DYRK2 (Homo sapiens, UniProt Q92630)",cell-free assay,95%
"FLT3 (Homo sapiens, UniProt P36888, D835Y)",binding,42%
"STK32B (Homo sapiens, UniProt Q9NY57)",cell-free assay,95%
"MYLK2 (Homo sapiens, UniProt Q9H1R3)",cell-free assay,88%
"SGK2 (Homo sapiens, UniProt Q9HBY8)",cell-free assay,99%
"BMPR2 (Homo sapiens, UniProt Q13873)",cell-free assay,84%
"RET (Homo sapiens, UniProt P07949, V804M)",cell-free assay,87%
"SLK (Homo sapiens, UniProt Q9H2G2)",cell-free assay,83%
"PLK3 (Homo sapiens, UniProt Q9H4B4)",cell-free assay,84%
"TAOK1 (Homo sapiens, UniProt Q7L7X3)",cell-free assay,100%
"Tyrosine-protein kinase JAK1, JH1 (JAK1, Homo sapiens, UniProt P23458)",cell-free assay,90%
"PIK3C2G (Homo sapiens, UniProt O75747)",cell-free assay,88%
"PIK3CA (Homo sapiens, UniProt P42336, I800L)",cell-free assay,71%
"PRKD1 (Homo sapiens, UniProt Q15139)",cell-free assay,100%
"NUAK1 (Homo sapiens, UniProt O60285)",cell-free assay,99%
